Earlier results as cited in several papers.
Numbers after ± are the reported error.

Cc1cc(N2CC[C@@](C#N)(C3CC3)C2=O)cc(NC(=O)Cc2ccccc2)n1
CC50 (MDA-MB-231; cytotoxicity): 0.382 µM

C=C(CC)C(=O)c1ccc(OCC(=O)Nc2cccc3cn(C)nc23)c(Cl)c1Cl
CC50 (Vero E6): ≥ 100 µM

Cc1cn(C2C=CC(COP(=O)(O)OP(=O)(O)OP(=O)(O)O)O2)c(=O)[nH]c1=O (stereo not drawn)
CC50 (CEM/0; cell proliferation): > 100 µM

CC(C)n1ccn2cc(C(=O)NCc3ccc(F)cc3F)c(=O)c(O)c2c1=O
CC50 (HOS; ATP level, 50% ATP reduction): > 250 µM

CCC(C)C(=O)c1c(O)c(CCC(C)C)c(O)c2c1OC(=O)CC2c1ccccc1 (stereo not drawn)
CC50 (macrophages): 85.4 µM

COCCCN1CCn2cc(C(=O)NCc3ccc(F)cc3F)c(=O)c(O)c2C1=O
CC50 (HOS; ATP level, 50% ATP reduction): 211 ± 3 µM

Cc1cc(N2CC[C@](C#N)(C3(C)CC3)C2=O)cc(C(=O)NCc2cc(F)cc(-c3cnn(C)c3)c2)n1
CC50 (ARPE-19): > 2 µM

O=C(CCC(CCC(=O)N[C@@H](Cc1ccc(O)cc1)C(=O)O)(CCC(=O)N[C@@H](Cc1ccc(O)cc1)C(=O)O)NC(=O)CCOCC(COCCC(=O)NC(CCC(=O)N[C@@H](Cc1ccc(O)cc1)C(=O)O)(CCC(=O)N[C@@H](Cc1ccc(O)cc1)C(=O)O)CCC(=O)N[C@@H](Cc1ccc(O)cc1)C(=O)O)(COCCC(=O)NC(CCC(=O)N[C@@H](Cc1ccc(O)cc1)C(=O)O)(CCC(=O)N[C@@H](Cc1ccc(O)cc1)C(=O)O)CCC(=O)N[C@@H](Cc1ccc(O)cc1)C(=O)O)COCCC(=O)NC(CCC(=O)N[C@@H](Cc1ccc(O)cc1)C(=O)O)(CCC(=O)N[C@@H](Cc1ccc(O)cc1)C(=O)O)CCC(=O)N[C@@H](Cc1ccc(O)cc1)C(=O)O)N[C@@H](Cc1ccc(O)cc1)C(=O)O
CC50 (MT-4; cell proliferation): > 100 µM

COc1ccc(C(=O)Nc2cc(OC)c(OC)c(OC)c2)cc1NC(=O)C(C)Br (stereo not drawn)
CC50 (Huh7.5): 11.8 ± 2.87 µM

Cn1ccn2cc(C(=O)NCc3ccc(F)cc3F)c(=O)c(O)c2c1=O
CC50 (HOS; ATP level, 50% ATP reduction): 121 ± 2.7 µM

C=C(CC)C(=O)c1ccc(OCC(=O)Nc2ccc3c(cnn3C)c2)c(Cl)c1Cl
CC50 (Vero E6): ≥ 50 µM

COCCCCCCn1ccn2cc(C(=O)NCc3ccc(F)cc3F)c(=O)c(O)c2c1=O
CC50 (HOS; ATP level, 50% ATP reduction): > 250 µM

Cc1cc(-c2ccc(C#N)cc2)cc(C)c1Nc1ccnc(Nc2ccc(C#N)cc2)n1
CC50 (MT-4): 2.08 µM

O=C(NCc1ccc(F)cc1F)c1cn2ccn(CCCCCCO)c(=O)c2c(O)c1=O
CC50 (HOS; ATP level, 50% ATP reduction): > 250 µM

Cc1cc(N2CCC(CO)(C3CC3)C2=O)cc(C(=O)NCc2cc(F)cc(-c3cnn(C)c3)c2)n1 (stereo not drawn)
CC50 (MDA-MB-231; cytotoxicity): 3.6 µM

Excerpt of the above:
CCC(C)C(=O)c1c(O)c(CCC(C)C)c(O)c2c1OC(=O)CC2c1ccccc1 (stereo not drawn)
CC50 (macrophages): 85.4 µM

Cc1cc(-c2ccc(C#N)cc2)cc(C)c1Nc1ccnc(Nc2ccc(C#N)cc2)n1
CC50 (MT-4): 2.08 µM
